Results gathered from unrelated publications.
Compare with care: the assays were run in different laboratories. ± marks the error that the study gave. Bridges are numbered along the chain shown (N, C = ends). Where no end group is shown, it is not given here.

Substance = CC(C)c1ccc2c(c1)CC[C@H]1[C@](C)(CN)CCC[C@]21C; target or system = WM35; test = cell growth or viability, MTS; conditions = 24 h; measurement = IC50; result = 7.02 µM
Substance = [Cl][Cd][Cl]; target or system = Caco-2 monolayers; test = viability, MTT; conditions = 96 h, repeated daily dosing; measurement = IC50; result = 34 µM
Substance = FFPKVAGVAAKVLKKFCTISKKC (disulfide 17-23 (inferred)) (disulfide); target or system = HaCaT; test = cell viability, MTT; measurement = IC50; result = 128 µM
Substance = N=C(N)NCCC[C@H](NC(=O)[C@H](Cc1c[nH]c2ccccc12)NC(=O)[C@H](CCC(N)=O)NC(=O)[C@H](Cc1c[nH]c2ccccc12)NC(=O)[C@H](CCCNC(=N)N)NC(=O)[C@H](Cc1c[nH]c2ccccc12)NC(=O)[C@H](CCC(N)=O)NC(=O)[C@H](Cc1c[nH]c2ccccc12)NC(=O)[C@H](CCCNC(=N)N)NC(=O)CCCCCN)C(N)=O; target or system = HT-29; test = cell growth or viability, MTT; measurement = IC50; result = 119 µM
Substance = lead; target or system = U-251 wild type; test = cell viability, MTT; conditions = 48 h; measurement = IC50; result = 5.2 ± 2.56 µM
Substance = O=P12CN3CN(CN(C3)C1)C2; target or system = human PBMC; test = cytotoxicity, MTT; conditions = 24 h, 1% DMSO; measurement = IC50; result = > 500 µM
Substance = N.N.[Cl][Pt][Cl]; target or system = PC-3; test = cell growth or viability, MTT; conditions = 72 h; measurement = IC50; result = 8.6 µM
Substance = CC[C@@]1(O)C(=O)OCc2c1cc1n(c2=O)Cc2cc3ccccc3nc2-1; target or system = HUVEC; test = cell growth or viability, MTT; conditions = 48 h; measurement = IC50; result = 0.25 µM
Substance = N.N.[Cl][Pt][Cl]; target or system = H460; test = cell viability, MTT; conditions = 4 h; measurement = IC50; result = 13.9 ± 9.32 µM
Substance = N.N.[Cl][Pt][Cl]; target or system = NCI-H460; test = cell growth or viability, MTT; conditions = 72 h; measurement = IC50; result = 2.92 µM
Substance = CCCCCCCCCC(=O)N[C@@H](Cc1ccccc1)C(=O)N[C@H](C(=O)NCC(=O)N[C@H](C(=O)N[C@@H](CC(C)C)C(=O)N[C@H](C(=O)N1CCC[C@H]1C(=O)N[C@@H](CC(C)C)C(=O)N[C@@H](C)C(=O)N[C@@H](CC(C)C)C(=O)NCC(=O)N[C@@H](C)C(=O)N[C@@H](CC(C)C)C(=O)N[C@H](C(=O)N[C@@H](CCCCN)C(=O)N[C@@H](CC(C)C)C(=O)N[C@@H](Cc1ccccc1)C(=O)N[C@@H](CCCCN)C(N)=O)[C@@H](C)O)[C@@H](C)CC)[C@@H](C)O)[C@@H](C)CC; target or system = CCRF-CEM; test = cell growth or viability, CCK-8; conditions = 24 h; measurement = IC50; result = 6.24 µM
Substance = N.N.[Cl][Pt][Cl]; target or system = HT-29; test = cell viability, MTS; conditions = 72 h; measurement = IC50; result = 69.1 ± 3.2 µM
Substance = O=S(=O)([O-])[O-].[Cu+2]; target or system = Caco-2 monolayers; test = transepithelial resistance; conditions = 96 h, repeated dosing; measurement = IC50; result = 473 µM
Substance = CCN.CCN.O=C([O-])CC(=O)[O-].O=C([O-])CC(=O)[O-].[Pt+4]; target or system = CH1; test = cell viability, MTT; conditions = 96 h; measurement = IC50; result = 222 ± 14 µM
Substance = O=C1C(=O)c2ccccc2C2=C1CC(Cn1cc(C[Se]c3ccccc3)nn1)O2 (centres unmarked); target or system = six human cancer cell lines; test = MTT; conditions = 72 h, range over cell lines; measurement = IC50; result = 0.07 to 0.29 µM
Substance = C#CC[C@H](N)C(=O)NCC(=O)NCC(=O)N[C@@H](Cc1ccc(O)cc1)C(=O)N[C@@H](CC(N)=O)C(=O)N[C@@H](CC(C)C)C(=O)N[C@@H](CCCNC(=N)N)C(=O)N1CCC[C@H]1C(=O)N[C@@H](CCCNC(=N)N)C(=O)N[C@H](C(=O)N[C@@H](Cc1ccc(O)cc1)C(=O)N[C@@H](CCC(N)=O)C(=O)N1CCC[C@H]1C(=O)N[C@@H](CCC(N)=O)C(=O)N[C@@H](CCCNC(=N)N)C(=O)N[C@@H](Cc1ccc(O)cc1)C(=O)NCC(=O)NCC(N)=O)[C@@H](C)O; target or system = A2780; test = cell growth or viability, MTT; measurement = IC50; result = > 200 µM
Substance = COC(=O)[C@H](C)NP(=O)(N[C@@H](C)C(=O)OC)OC[C@H]1O[C@@H](n2cnc(C(N)=O)c2N)[C@H](O)[C@@H]1O; target or system = human T-lymphocyte; test = cell growth or viability; conditions = 72 h; measurement = IC50; result = > 250 µM
Substance = N.N.[Cl][Pt][Cl]; target or system = LN-308; test = cell viability, trypan blue exclusion; conditions = 48 h, dark; measurement = IC50; result = 8.8 ± 0.7 µM
Substance = CN(C)c1cc2c(Nc3ccc4c(cnn4Cc4ccccc4)c3)ncnc2cn1; target or system = H2030 (EGFR wild type); test = cell viability, Alamar Blue; conditions = 120 h; measurement = IC50; result = > 10 µM
Substance = CC(/C=C/C(C)=C/[C@@H]1Cc2nc(cs2)CC[C@@H](N)CC(=O)O[C@@H](C)C/C(C)=C/C=C\C(=O)O1)=C\CN(C)C; target or system = primary CLL cells; test = apoptosis, annexin V/PI staining; conditions = 24 h, 10% human plasma; measurement = IC50; result = 0.33 ± 0.25 µM
Substance = CC/C(=C(\c1ccccc1)c1ccc(OCCNC)cc1)c1ccccc1; target or system = cultured mouse DRG neurons; test = action potential firing frequency, current clamp; conditions = 2 to 4 min, with: 80 pA current injection; measurement = IC50; result = 0.119 µM
Substance = COc1ccc2c(c1)[nH]c1c(C)nccc12; target or system = C4-2; test = cell growth or viability, MTT; conditions = 48 h; measurement = IC50; result = ~14 µM
Substance = N.N.[Cl][Pt][Cl]; target or system = PC-3; test = cell growth or viability, SRB; measurement = IC50; result = 18.2 µM
Substance = CN[C@@](C)(C[18F])C(=O)O; test system = mouse, bone; conditions = 15 min, tumour-bearing; measurement = tracer uptake; result = 4.2 %ID/g
Substance = COc1ccc(NC(=O)Cn2cnc3ccccc3c2=O)c([N+](=O)[O-])c1; target or system = HEK293; test = cell growth or viability, crystal violet; conditions = 48 h; measurement = IC50; result = > 100 µM
Substance = CO[C@H]1[C@H](O[C@H]2CC[C@]3(C=O)[C@H]4CC[C@]5(C)[C@@H](C6=CC(=O)OC6)CC[C@]5(O)[C@@H]4CC[C@]3(O)C2)O[C@H](C)[C@H](O)[C@@H]1OC; target or system = mouse oviductal epithelial, scrambled; test = cell viability; conditions = 72 h; measurement = IC50; result = > 50 µM
Substance = Cc1c2oc3c(C)ccc(C(=O)N[C@@H]4C(=O)N[C@H](C(C)C)C(=O)N5CCC[C@H]5C(=O)N(C)CC(=O)N(C)[C@@H](C(C)C)C(=O)O[C@@H]4C)c3nc-2c(C(=O)N[C@@H]2C(=O)N[C@H](C(C)C)C(=O)N3CCC[C@H]3C(=O)N(C)CC(=O)N(C)[C@@H](C(C)C)C(=O)O[C@@H]2C)c(N)c1=O; target or system = LAPC4; test = androgen receptor transcriptional activity, inhibitor; conditions = 24 h; measurement = IC50; result = 0.0011 µM
Substance = O=C(Cn1cnc2ccccc2c1=O)Nc1nccs1; target or system = HEK293; test = cell growth or viability, crystal violet; conditions = 48 h; measurement = IC50; result = > 100 µM
Substance = O=c1[nH]c(=O)n([C@H]2C[C@H](O)[C@@H](CO)O2)cc1F; target or system = 293FT; test = cell viability; measurement = IC50; result = > 15 µM
Substance = C[C@@H]1CC[C@H]2[C@@H](C)C(=O)O[C@@H]3O[C@@]4(C)CC[C@@H]1[C@]32OO4; target or system = J774; test = cell growth or viability, resazurin; measurement = IC50; result = ~200 µM
Substance = CC1(C)c2ccccc2N(Cc2ccc(C(=O)NO)cc2)C1c1cccnc1 (racemic); target or system = IPF patient basal cells; test = bronchosphere formation, 3D organoid and MTT; conditions = 14 days; measurement = IC50; result = 0.00515 µM
Substance = O=c1[nH]cc(F)c(=O)[nH]1; target or system = 293FT; test = cell viability; measurement = IC50; result = ≥ 50 µM
Substance = N.N.[Cl][Pt][Cl]; target or system = L-O2; test = MTT; conditions = 48 h; measurement = IC50; result = 3.64 ± 0.1 µM
Substance = COc1ccc(NC(=O)Cn2cnc3ccccc3c2=O)c(N)c1; target or system = HEK293; test = cell growth or viability, crystal violet; conditions = 48 h; measurement = IC50; result = > 100 µM
Substance = S=C([S][Au][PH](c1ccccc1)(c1ccccc1)c1ccccc1)n1ncc2ccccc21; target or system = PHA-P stimulated human PBMC; test = cell growth, MTT; conditions = 3 d; measurement = IC50; result = 5.08 ± 2.48 µM

Excerpt of the above:
Substance = N.N.[Cl][Pt][Cl]; target or system = HT-29; test = cell viability, MTS; conditions = 72 h; measurement = IC50; result = 69.1 ± 3.2 µM
Substance = O=P12CN3CN(CN(C3)C1)C2; target or system = human PBMC; test = cytotoxicity, MTT; conditions = 24 h, 1% DMSO; measurement = IC50; result = > 500 µM
Substance = S=C([S][Au][PH](c1ccccc1)(c1ccccc1)c1ccccc1)n1ncc2ccccc21; target or system = PHA-P stimulated human PBMC; test = cell growth, MTT; conditions = 3 d; measurement = IC50; result = 5.08 ± 2.48 µM
Substance = CC/C(=C(\c1ccccc1)c1ccc(OCCNC)cc1)c1ccccc1; target or system = cultured mouse DRG neurons; test = action potential firing frequency, current clamp; conditions = 2 to 4 min, with: 80 pA current injection; measurement = IC50; result = 0.119 µM
Substance = C[C@@H]1CC[C@H]2[C@@H](C)C(=O)O[C@@H]3O[C@@]4(C)CC[C@@H]1[C@]32OO4; target or system = J774; test = cell growth or viability, resazurin; measurement = IC50; result = ~200 µM
